Published values from different studies.
Each numbered part is a random draw from the data of one study; scales do not carry over between parts. Substitutions count along the parent as printed.

Set 1 — technique: EMSA with sequencing; form: double-stranded DNA, one strand shown; matrix: in vitro; tested at: 10 and 20 nM; baseline: negative control set to 0; reading: higher = stronger binding
Target: Hepatocyte nuclear factor 3-alpha (Foxa1, Mus musculus, UniProt P35582, residues 1-468, full length assumed)
Sequence of UniProt P35582 (whole entry, looked up): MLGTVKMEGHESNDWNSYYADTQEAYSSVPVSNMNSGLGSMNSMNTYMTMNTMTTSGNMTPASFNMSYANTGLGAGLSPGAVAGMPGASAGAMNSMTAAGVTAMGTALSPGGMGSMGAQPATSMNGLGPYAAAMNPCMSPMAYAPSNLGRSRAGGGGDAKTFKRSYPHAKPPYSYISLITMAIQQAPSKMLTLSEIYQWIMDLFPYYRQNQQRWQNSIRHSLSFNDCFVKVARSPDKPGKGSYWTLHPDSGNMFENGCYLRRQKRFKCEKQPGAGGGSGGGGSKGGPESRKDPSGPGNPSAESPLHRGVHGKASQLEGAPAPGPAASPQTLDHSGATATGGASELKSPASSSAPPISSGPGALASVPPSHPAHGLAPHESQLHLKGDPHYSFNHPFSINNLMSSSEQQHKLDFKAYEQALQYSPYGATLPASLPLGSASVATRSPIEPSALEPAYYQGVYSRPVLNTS
Setting: whole designed probe, mean of two concentrations, ends assumed
| Oligonucleotide | normalised bound fraction |
| --- | --- |
| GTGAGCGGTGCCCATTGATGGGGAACATCTTCCCCCTCTTCCTTGCCCCACCAGCTCACCTTCCCGGGTATCTGCAAATAAGGAAAATAAATAAAGCCGGCATTCGTTAACCCTCTTCTGGCGCAAACTGCTGTTTACTTTGGATGAATCATGGTCCTTTGGCGACGCCAGGCTCCGGGAGAGCAAAGCACCGTGTCAGGGCCATGATCCGGGGTGGCCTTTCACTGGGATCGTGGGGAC | 0.431 ratio |
| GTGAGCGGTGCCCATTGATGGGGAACCATTAGAGTCAAAGTTGTTAAGGGGAGCTAGTCATAGCTACCACGTGGCCAGGCATGTGGAACCAGACACCAGGATGAATCATCACACACATCTATTTACTTTAAATAATGCTGACAACCTAGTTCATAGTGACACACTACTTGAGATATATAGAATAACATTATTACCCAGTAAGTATGTGAACATTCCGATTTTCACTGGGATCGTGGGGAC | 0.341 ratio |
| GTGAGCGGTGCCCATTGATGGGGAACGGGTCAAGTGGCCACCCAGAGAGCTGATGCATGCTGATGTGAGACTCCTACAAGCCATGAGACAAAACAGACTTATAAACATGTAACGTGTTGTGTTGACACAAGGAACCAAGCAGTGATGAGGAATGTGCCAATGGCTGAGATGGAGCAACCCACTTGCTGAGTCTTGCAAAAGCAACCTCCCTAGATGAACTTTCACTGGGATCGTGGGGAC | 0.373 ratio |
| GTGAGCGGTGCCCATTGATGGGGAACTTCCGTCTGTGGTCTATAGCGTTGCCTCTTGCCTTTTTACAAGGAAGAAAAACTTGTATAAACATCATGATTCATGGGTTTTAATCACTTTAGGTAAACAGTGCTGCCAGATGATCCTGGTTTGCAGATTCAGGACATGAAATCCTTCAACTGACACTGAGATTTGTTTAGAGTTGATGGTGGGAGAAGAGAGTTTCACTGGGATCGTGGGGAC | 0.312 ratio |
| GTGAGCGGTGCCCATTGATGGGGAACATCTTCCCCCTCTTCCTTGCCCCACCAGCTCACCTACGGGGGTTATTTGCAGATAGGAAAATAAATAAAGCCGGCATTCGTTAACGCAGTTCTGGCGCAAACTGCTGTTTGCTCTGGATGAATCATGGTCCTTTGGCGAGGCGTGGCTCCGGGAGAGCAAAGCACCGTGTCAGGGCCATGATCCGGGGTGGCCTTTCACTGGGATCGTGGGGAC | 0.347 ratio |

Set 2 — technique: RNA Bind-n-Seq; form: RNA; matrix: in vitro; tested at: 365 nM; baseline: no-protein control; reading: higher = stronger binding
Target: RNA binding protein fox-1 homolog 2, RRM domain, GST-SBP tag (RBFOX2, Homo sapiens, UniProt O43251-10, residues 100-194)
Setting: natural RNA segment, single round, ends assumed
Target sequence (chain): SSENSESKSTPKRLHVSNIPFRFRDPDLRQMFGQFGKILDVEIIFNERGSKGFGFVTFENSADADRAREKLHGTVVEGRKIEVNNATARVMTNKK
| Oligonucleotide | RBNS enrichment (R) |
| --- | --- |
| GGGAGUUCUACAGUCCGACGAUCGGAUUUUUGUUAAUGUAUUUAUUUCAUUCCAGUUUGAUUUAUUUUAAUUGUUGAUACUUAAGUUGUCAGUAGACAUGCUUUAUUUAUGAUAUAUUUCAGCUUAAAGUUAUUGGAAUUCUCGGGUGCCAA | 1.15 |
| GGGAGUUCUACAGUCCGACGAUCACUCUGGGGGACUCUGUUUCAAGGGGAAAAAAAGAACAGAGUCUGACUGCUUGGCUACGUACAGUAUAAGUAUUUCCUUUCUGUGACAUUGUGACAUACAAUUUAAACACUGGAAUUCUCGGGUGCCAA | 0.599 |
| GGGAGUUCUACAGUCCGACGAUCACUGCCAUCACAAAUGUCCCGGGGCCUCCUGCAAGACAGUAAUGAAUCCAGGUUAUAGUGCCUUCGACGUCUCGGUUCCCCGGAAGGAUGCUCCUUCCCUGAAUAUGCAGUGGAAUUCUCGGGUGCCAA | 0.34 |
| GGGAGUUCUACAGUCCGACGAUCUGGGCUUCUAAAUCAAAAGCCUGAUGUUCGUGUCCCUCUCAUAGGGGGAGCUUUGGACACAGGACCAGUUUGGAAAAGGGUCAGGUAAGGGUUUCCACUCUGCACAUUGUUGGAAUUCUCGGGUGCCAA | 0.449 |
| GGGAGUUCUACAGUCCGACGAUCAGGAGUACCCAUGCACAGCAGCUGUGGGGUGUGGGCAUCUUCAGGUGGUGUUCUGGUAAAAUUGUUAGAAUAGCUGUAUGAAGGAAACCAGUGGGAGGAAAUGAAGUUUUUGGAAUUCUCGGGUGCCAA | 0.963 |
| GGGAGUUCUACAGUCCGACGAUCUCUUCACUUGCUAAAGCAGCUAAACUGUGAAGCUCUAAGUGGUUUGGGUUUGUUGUUUAACCUUAGCGAGAUCCUUUAACUGCAGCAAUAUUCAAGCCAGAUAUUUGGAAUGGAAUUCUCGGGUGCCAA | 0.551 |
| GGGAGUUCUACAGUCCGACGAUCGGGUUUCCUUUCAUAUUCUCCUGGCCAACUCCAGAGUGGCCUCCUAACCCAGCAGGCCCACCCCUCUGGGAGUCGUUGGUCUCCACCAGUUUUGUUAGGCUUUGAGUGUCUGGAAUUCUCGGGUGCCAA | 0.305 |
| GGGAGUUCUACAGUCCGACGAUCGGCCCCUCUUUCUUGGGGACCCAGUAUGUCCUCUCCUCUAGACCCAGACAUACAGUUAUAACCGUCUGUCCUAGCCCCUCCCUAAUCCCUGGCCCUCCCAGCUGUCUGGGUGGAAUUCUCGGGUGCCAA | 0.248 |
| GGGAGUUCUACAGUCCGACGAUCUAAUAACAAUAAGGAGUAAGCCACCUUUUAUAGGCACCCUGUAGUUUUAUAGUUCUUAAUCUAAACAUUUUAUAUUUCCUUCUUUUGGAAAAAACCUACAUGCUACAAGCUGGAAUUCUCGGGUGCCAA | 0.775 |
| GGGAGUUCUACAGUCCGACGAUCAUCCAAUCGCCCUCAAGUGAGACCUUUGUCCCCUGGAGAGAGUGGUGCCUGGGACAUUCCUGGAGGGAUCAUGCCUGGCCGCUACAACCAGGAGGUGGGACAGACCAUCCUGGAAUUCUCGGGUGCCAA | 0.246 |
| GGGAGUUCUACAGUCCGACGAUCGCAGCUCACAUCCCACCCAGCUUCACAAGUGAGGAACCCAGGUGCAUCGGGAGACCCUCGGGGGCUUCUGUGGCCUCUGUGCCCGAUGACCUGCGUGGCUUCAGACAAGGUGGAAUUCUCGGGUGCCAA | 0.213 |
| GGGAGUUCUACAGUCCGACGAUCGAACUGGACGUCACCAAACAAGGUUGCAUUUUACUUUUGCAUCCAGUUUUUAUAGUUUUCCACAACCAAGCCACCCUUCACAGAUAAAAUAUGAUGCUGGCAUGGCAAUCUGGAAUUCUCGGGUGCCAA | 0.551 |

Set 3 — technique: RNA Bind-n-Seq; form: RNA; matrix: in vitro; tested at: not given; setting: RNA with constant flanks, ends assumed; baseline: input RNA pool; reading: higher = stronger binding
Target: RING finger protein unkempt homolog, zinc fingers 1-6, GST-SBP tag (UNK, Homo sapiens, UniProt Q9C0B0, residues 30-357)
Sequence of UniProt Q9C0B0 (30-357, looked up): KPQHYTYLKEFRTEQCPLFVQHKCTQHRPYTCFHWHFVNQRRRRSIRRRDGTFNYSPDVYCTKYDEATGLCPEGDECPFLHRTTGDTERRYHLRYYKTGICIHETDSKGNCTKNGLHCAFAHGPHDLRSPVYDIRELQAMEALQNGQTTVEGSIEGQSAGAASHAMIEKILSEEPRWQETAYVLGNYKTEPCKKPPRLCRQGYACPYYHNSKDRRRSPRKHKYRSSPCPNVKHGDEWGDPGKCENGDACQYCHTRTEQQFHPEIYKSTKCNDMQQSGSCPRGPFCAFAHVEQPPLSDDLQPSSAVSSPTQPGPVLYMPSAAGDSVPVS
| Oligonucleotide | bound/input enrichment [ratio] |
| --- | --- |
| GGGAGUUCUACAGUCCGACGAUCCAGAAAGCUUGACCAAGUUACAUAUUCUAGAGAAUGUCCCGAGUGCCAAGCACGUUUAUACACCGGGCGUGUAUUCCAGUCUUUUCUGUCAUUCUGUGUGUGUGUGUGUGUACGUAUGUGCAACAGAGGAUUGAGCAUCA | 0.249 |
| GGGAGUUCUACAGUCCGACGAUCAAGGUAAGACUUAUUUGUAGUAGAUAAAUAGCCACCAUGGAGACCAAGGACCACAAGAAACACCGGAAGAAGCACAGUGGGCCUAAAGCUGAGAAGAAAAAGAAACGGCACCUGCAAGACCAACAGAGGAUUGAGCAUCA | 0.247 |
| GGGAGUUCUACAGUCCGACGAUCGUAUCUAGCUUUUAAAGAACUACAUGUGUCUUUAAAAGUAUUUAUUGUGCAAAUGUACUACCGCAGUUCAUCUUCAUGUUCCAGCCUUACUCUGUGUUAAUACUGCUUCACAAUUCUGAACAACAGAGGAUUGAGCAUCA | 0.217 |
| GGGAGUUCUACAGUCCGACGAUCCUGUUGUAUGAAAGGAGAGAAGGAUAACAAAUUGCGGUUUUCCCUGGUAAACACAGUAAGCCGUAAACUCAGGAUUCAAAACCAAAUAUACACACCAAAUCCACUAUGUAAUAUUAAGUUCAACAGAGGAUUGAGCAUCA | 0.246 |
| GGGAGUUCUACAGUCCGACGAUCGGUAAGUGGGGGCAAGUGGGGGCAAGGGGACAUAUCAUUGUGACAACUUUUUUGAUAUUUACCCGAAAUGAUGCAAUAUAUCCUUUCUGAGAUAUUUACAGUAUUAUUAAAGGGUUGGGCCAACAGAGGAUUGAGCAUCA | 1.74 |
| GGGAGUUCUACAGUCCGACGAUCGAAAUUUCAAAAGCAGGGGAGUAUGUACGAGUUAAACUACAACUGAAUCCAGCUGCCCGGGAAUUUAAACCAGAUGUAAAGUCUAAACCAGUGUCAGAUUCAUCUUCAGCACCAGCUUUUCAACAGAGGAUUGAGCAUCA | 0.186 |

Set 4 — technique: DHFR PCA, deep sequencing; matrix: yeast; added: (+)-ABA 1.4 µM; baseline: wild-type fitted maximum; reading: higher = stronger binding
Target: ABI1, truncated, D143A, DHFR fusion (Arabidopsis thaliana)
Setting: methotrexate growth selection, single substitutions
Parent: PYL1, truncated, DHFR fusion (Arabidopsis thaliana); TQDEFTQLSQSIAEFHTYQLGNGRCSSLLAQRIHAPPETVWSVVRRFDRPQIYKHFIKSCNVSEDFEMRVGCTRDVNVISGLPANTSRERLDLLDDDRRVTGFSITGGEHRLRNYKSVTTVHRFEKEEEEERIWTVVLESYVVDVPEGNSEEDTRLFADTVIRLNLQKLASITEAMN
| Variant | relative binding score [%] |
| --- | --- |
| V43L | 39 |
| G102N | -3.37 |
| P83F | -14.8 |
| I162L | 11.7 |
| R132A | 80.5 |
| F5H | 44.8 |
| R69T | 52.6 |
| S117Y | -12.9 |
| G81L | 0.595 |
| R98C | 10.2 |
| S63G | 65.3 |
| E151F | 11.2 |
